Assay results from different studies.
Protocols differ between the studies behind these lines. Values joined by “and” are separate records of one study, mostly repeats; a detail may differ. ± marks the error that the study gave.
UCHL1: Ubiquitin carboxyl-terminal hydrolase isozyme L1 (UCHL1, Homo sapiens, UniProt P09936)
Voltage-dependent P/Q-type calcium channel subunit alpha-1A: Voltage-dependent P/Q-type calcium channel subunit alpha-1A (Homo sapiens, UniProt O00555)
ADRA2C: Alpha-2C adrenergic receptor (ADRA2C, Homo sapiens, UniProt P18825)
TOP2B: DNA topoisomerase 2-beta (TOP2B, Homo sapiens, UniProt Q02880)
T1: G-quadruplex DNA (Homo sapiens); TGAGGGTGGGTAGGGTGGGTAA

Structure (SMILES) | target | assay | system | setting | how to read | quantity | value
O=S(=O)(O)O | GUK1 (Homo sapiens, UniProt Q16774) | enzyme activity, NADH-coupled |  | 5 mM, added: ATP 4000 µM |  | reaction velocity | 0.133 µM/s and 0.146 µM/s and 0.123 µM/s
CC(C)NC(=O)C(C#N)=Cc1ccc(C#N)cc1 | UCHL1 | covalent, intact protein LC-MS |  | 12.5 µM |  | labelling | 11.3%
CN(C)CCNc1nc(-c2cccc(-c3nc(NCCN(C)C)c4ccccc4n3)n2)nc2ccccc12 | T1, G-quadruplex DNA (Homo sapiens) | thiazole orange displacement, competitor, FID |  | 0.25 µM DNA, pH 7.4, 25 °C, KCl 100 mM, added: thiazole orange 0.50 µM |  | IC50 | 0.313 µM
CN1C(N)=N[C@](C)(c2cc(NC(=O)c3ccc(F)cn3)ccc2F)CS1(=O)=O | Voltage-dependent P/Q-type calcium channel subunit alpha-1A | ion current, antagonist, automated patch clamp |  |  |  | IC30 | 8.82 µM
CCN1CCC[C@H]1CNC(=O)c1c(O)c(Cl)cc(Cl)c1OC | Probable G-protein coupled receptor 150 (GPR150, Homo sapiens, UniProt Q8NGU9) | β-arrestin recruitment, TANGO luminescence, measured: GPR150 |  | concentration not given | relative to: basal luminescence | log2 fold change | 0.161
O=S(=O)(NCC(F)(F)c1ccc(Cl)c(Cl)c1)c1cccc(Cl)c1O | malate dehydrogenase | enzyme activity, inhibitor |  | 200 µM, pH 7.0, 1% DMSO, aggregation counter-screen |  | remaining activity | 103%
CC/C=C(\C)C=O | Uncharacterized protein PH0856 (Pyrococcus horikoshii, UniProt O58586) | substrate |  | pH 7, 30 °C, aerobic, added: NADH |  | conversion | 20%
CCS(=O)(=O)N1CC(CC#N)(n2cc(-c3ncnc4[nH]ccc34)cn2)C1 | Alpha-1-acid glycoprotein 1 (ORM1, Homo sapiens, UniProt P02763) | FRET |  | 1.2 µM |  | spectral overlap integral | 5.39e-15 cm³ L/mol
Nc1ncnc2c1ncn2[C@@H]1O[C@H](COP(=O)(O)OP(=O)(O)OP(=O)(O)O)[C@@H](O)[C@H]1O | P2X purinoceptor 7 (P2rx7, Rattus norvegicus, UniProt Q64663, Q143A) | ion current, agonist, two-electrode voltage clamp | Xenopus laevis oocytes | 55 µM | relative to: highest concentration response | normalized current | 0.232 and 0.273 and 0.144
CC(=O)N[C@@H](Cc1c[nH]cn1)C(=O)N[C@@H](CC(=O)O)C(=O)N1CCC[C@H]1C(=O)N1CCC[C@H]1C(=O)N[C@@H](CC(C)C)C(=O)N[C@@H](Cc1c[nH]cn1)C(=O)N[C@@H](CO)C(=O)N[C@H](C(=O)N[C@@H](C)C(N)=O)[C@@H](C)OP(=O)(O)O | Serine/threonine-protein kinase PLK1 (PLK1, Homo sapiens, UniProt P53350) | polo-box domain binding, isothermal titration calorimetry |  | concentration not given, 25 °C |  | binding entropy | -22.5 cal/(mol·K)
CC1=C[C@H](O/C=C2/C(=O)O[C@@H]3c4ccccc4C[C@H]23)OC1=O (racemic) | D14, with SMXL7 (Arabidopsis thaliana, UniProt Q9SQR3) | complex formation with SMXL7, agonist, TR-FRET |  | 50 µM, 300 min, unit not given, added: Arabidopsis SMXL7 10 µg/mL, D14-mEGFP 100 nM | relative to: control | TR-FRET signal | 2.59
NCCCS(=O)(=O)O | Sodium- and chloride-dependent taurine transporter (SLC6A6, Homo sapiens, UniProt P31641, Y138A) | binding, microscale thermophoresis |  | 250 µM, room temperature, added: 50 nM labelled protein | higher = more binding | normalised MST signal | 0.74
N[C@@H](CCC(=O)O)C(=O)O | glc-2 (Caenorhabditis elegans, UniProt Q17328, R340A/R342A/R351A/R352A/R353A/S341A/T283S) | two-electrode voltage clamp | Xenopus laevis oocytes |  |  | mean current | 4.1 µA
COc1ccc2c3c1O[C@H]1C[C@@H](O)C=C[C@@]31CCN(C)C2 | Voltage-dependent P/Q-type calcium channel subunit alpha-1A | ion current, antagonist, automated patch clamp |  |  |  | IC30 | > 30 µM
O=P(O)(O)OC[C@H](O)CO (racemic) | uncharacterized protein (Pelagibacter ubique, UniProt Q4FMG4) | differential scanning fluorimetry | Candidatus Pelagibacter ubique | in-house screen |  | thermal shift | 2.13 °C
Nc1ccc(C(=O)O)cc1 | BEST1, with wild-type BEST1 (Homo sapiens, UniProt O76090, R218H) | ion current, whole-cell patch clamp | HEK293 co-expressing mutant and wild-type | concentration not given, voltage 60 mV |  | current density | 11.4 pA/pF and 6.4 pA/pF and 4.75 pA/pF and 19.6 pA/pF and 12.6 pA/pF and 16.4 pA/pF and 25.3 pA/pF and 3.53 pA/pF
O=[N+]([O-])c1cc(C(F)(F)F)ccc1NCc1ccco1 | Endothelial PAS domain-containing protein 1, PAS-B domain (EPAS1, Homo sapiens, UniProt Q99814) | binding, ITC, reverse mode |  |  |  | ΔH | -8.31 ± 0.16 kcal/mol
CN(C)C(=O)C(CCN1CCC(O)(c2ccc(Cl)cc2)CC1)(c1ccccc1)c1ccccc1 | Calcium-activated potassium channel subunit alpha-1, with LRRC26 γ1 subunit (KCNMA1, Homo sapiens, UniProt Q12791) | BK current, inside-out patch clamp | excised membrane patch | 10 µM, γ1 coexpressed, individual fits, added: nominally 0 Ca2+ cytosolic |  | effective gating valence | 1.07 ± 0.07 elementary charges
Nc1ncnc2c1ncn2[C@@H]1O[C@H](COP(=O)(O)CP(=O)(O)OP(=O)(O)O)[C@@H](O)[C@H]1O | P2X purinoceptor 1 (P2RX1, Homo sapiens, UniProt P51575, S286A) | saturation binding | HEK293 | 13 nM |  | specific binding | 3850 CCPM and 722 CCPM and 1440 CCPM
Nc1nc2c(ncn2[C@@H]2O[C@H](COP(=O)(O)O)[C@@H](O)[C@H]2O)c(=O)[nH]1 | GUK1 (Homo sapiens, UniProt Q16774, D103A) | binding, ITC |  |  |  | ΔH | -8.6 ± 0.1 kcal/mol
Cc1cc(Oc2ncccc2CN2CCN(c3ccc(F)cc3F)CC2)ccc1-c1c(C)c(=O)[nH]c(=O)n1C | ADRA2C | binding, radioligand binding |  | added: [3H]rauwolscine | relative to: Ki alpha2A over Ki alpha2C | selectivity ratio | 4
Cn1ncc(S(=O)(=O)NC2CCSc3c(F)cccc32)c1C(=O)O (stereo not drawn) | malate dehydrogenase | enzyme activity, inhibitor |  | 200 µM, pH 7.0, 1% DMSO, aggregation counter-screen |  | remaining activity | 83%
O=C(Nc1ccccc1Oc1nc2ccccc2n2cnnc12)c1cccs1 | Catenin beta-1, residues 141-305 (CTNNB1, Homo sapiens, UniProt P35222) | ITC |  | 25 °C |  | ΔS | 16.4 cal/mol/K
COc1cccc(CC(C)NS(=O)(=O)c2c(C)oc(C)c2C(=O)O)c1 (stereo not drawn) | malate dehydrogenase | enzyme activity, inhibitor |  | 200 µM, pH 7.0, 1% DMSO, aggregation counter-screen |  | remaining activity | 88%
NC(=O)c1ccc[n+]([C@@H]2O[C@H](COP(=O)([O-])OP(=O)(O)OC[C@H]3O[C@@H](n4cnc5c(NCCNC(=O)CCCCCNC(=O)CCCCCNC(=O)CCCC[C@@H]6SC[C@@H]7NC(=O)N[C@@H]76)ncnc54)[C@H](O)[C@@H]3O)[C@@H](O)[C@H]2O)c1 | Protein mono-ADP-ribosyltransferase PARP8 (Homo sapiens, UniProt Q8N3A8) | substrate, DELFIA auto-modification |  |  |  | apparent Km | 50 µM
CC1=C(/C=C/C(C)=C/C=C/C(C)=C/C=C/C=C(C)/C=C/C=C(C)/C=C/C2=C(C)CCCC2(C)C)C(C)(C)CCC1 | Beta-lactoglobulin (LGB, Bos taurus, UniProt P02754) | intrinsic fluorescence |  | 298 K | relative to: protein alone | fluorescence decrease | 36.4%

Structure (SMILES) | target | assay | system | setting | how to read | quantity | value
CCc1oc2ccccc2c1C(=O)c1cc(Br)c(O)c(Br)c1 | Solute carrier family 22 member 12 (SLC22A12, Homo sapiens, UniProt Q96S37) | inhibitor | HEK-293T | 0.1 µM, 10 min, 37 °C, added: [14C]urate 10 µM |  | normalized urate uptake | 1 and 1.09 and 1.1
CCCCCCCC(=O)c1cc(OC)c(OC)c(OC)c1CC(=O)OCC | Nuclear receptor subfamily 1 group I member 3 (Homo sapiens, UniProt Q14994) | reporter gene, Gal4 hybrid reporter |  | 10 µM | relative to: vehicle | activation | 1.2 fold
Cc1nc(CSc2nc(SCc3ccc(C(C)C)cc3)nc(=O)[nH]2)cs1 | TOP2B | decatenation |  | 31.25 µM, replicate 2 |  | decatenated DNA | 44.5%
Cc1cc(Oc2ncccc2CN2CCN(c3ccccc3Br)CC2)ccc1-c1c(C)c(=O)[nH]c(=O)n1C | ADRA2C | binding, radioligand binding |  | added: [3H]rauwolscine | relative to: Ki alpha2B over Ki alpha2C | selectivity ratio | 3
COc1nc(Cl)nc(N2CCCCC2)n1 | UCHL1 | covalent, intact protein LC-MS |  | 12.5 µM |  | labelling | 4.23%
CC(C)OCCn1c(=S)[nH]c(=O)c2[nH]ccc21 | Myeloperoxidase (MPO, Homo sapiens, UniProt P05164) | H2O2 consumption, inhibitor, H2O2 electrode |  | 0.226 µM, 0.2 s |  | H2O2 concentration | -0.629 µM
CC[C@@H]1[C@H](F)C(=O)N[C@@H]1COc1nccc2cc(C(N)=O)c(OC)cc12 | Ephrin type-A receptor 7 (EPHA7, Homo sapiens, UniProt Q15375) | ATP probe binding, KiNativ profiling, measured: activation loop probe site | THP-1 cell lysate | 0.04 mM |  | inhibition | 21.7%
O=C(O)c1ccc(O)cc1 | BEST1 (Homo sapiens, UniProt O76090) | whole-cell patch clamp | HEK293 transiently expressing channel | concentration not given, membrane potential 40 mV |  | current density | 18.3 pA/pF and 15.6 pA/pF and 13 pA/pF and 21.3 pA/pF and 13.1 pA/pF and 28.5 pA/pF and 10.3 pA/pF
CC[C@H](C)C(=O)O[C@H]1C[C@H](O)C=C2C=C[C@H](C)[C@H](CC[C@@H](O)C[C@@H](O)CC(=O)O)[C@H]21 | Voltage-dependent P/Q-type calcium channel subunit alpha-1A | ion current, antagonist | HEK293 | 10 µM |  | inhibition | 7%
COCCNC(=O)C(C#N)=Cc1cccc2ccccc12 | UCHL1 | covalent, intact protein LC-MS |  | 12.5 µM |  | labelling | 14.4%
Cc1cc(OCC(=O)NCCNC(=O)c2cccc(COc3ccccc3C(N)=O)c2)c2c3c(c(=O)oc2c1)CCC3 | Poly [ADP-ribose] polymerase tankyrase-1 (TNKS, Homo sapiens, UniProt O95271) | enzyme activity, inhibitor |  |  |  | ligand efficiency | 0.38
O=c1nc(SCc2cc(F)cc(C(F)(F)F)c2)nc(SCc2ccc3sccc3c2)[nH]1 | TOP2B | decatenation |  | 15.6 µM |  | mean decatenated DNA | 0.88%
CC(C)Cc1ccc(CNS(=O)(=O)c2ccccc2C(=O)O)cc1 | malate dehydrogenase | enzyme activity, inhibitor |  | 200 µM, pH 7.0, 1% DMSO, aggregation counter-screen |  | remaining activity | 93%
O=c1nc(SCc2cc(F)cc(C(F)(F)F)c2)nc(SCc2ccc3nc(Cl)ccc3c2)[nH]1 | TOP2B | decatenation |  | 7.8 µM |  | mean decatenated DNA | 91.9%
CCNC(=O)/C=C/c1cccc(Br)c1 | Sodium-dependent neutral amino acid transporter B(0)AT1 (SLC6A19, Homo sapiens, UniProt Q695T7) | inhibitor, L-[14C]leucine uptake | CHO-BC cells | 100 µM, 6 min, unit not given, added: GPNA 3 mM, JPH203 3 µM | relative to: uninhibited cells | remaining transport activity | 0.0295
COc1cc(C=C(C#N)C(=O)NC(C)C)cc(OC)c1 | UCHL1 | covalent, intact protein LC-MS |  | 12.5 µM |  | labelling | 13.6%
C=CC(=O)N1CCC(COCC(=O)N2CCN(c3nc(-c4cnc(N)nc4C(F)F)nc(N4CCOC[C@@H]4C)n3)CC2)CC1 | Serine/threonine-protein kinase 32A (STK32A, Homo sapiens, UniProt Q8WU08) | KINOMEscan |  | 1 µM |  | remaining binding | 87%
O=C(CCl)Nc1ncc(Cc2ccccc2Cl)s1 | UCHL1 | covalent, intact protein LC-MS |  | 12.5 µM |  | labelling | 38.9%
COc1cc(C)[nH]c(=O)c1CN1CCc2c(Cl)cc([C@H](OC)C3COC3)c(Cl)c2C1=O | Histone-lysine N-methyltransferase EZH2 (EZH2, Homo sapiens, UniProt Q15910) | binding |  | activated PRC2 with H3K27me3 peptide |  | residence time | 13 h
Cl.O=C(CCl)NCc1ccccc1CN1CCOCC1 | UCHL1 | covalent, intact protein LC-MS |  | 12.5 µM |  | labelling | 17.4%
CC1(c2cc(F)ccc2F)CC1NC(=O)NCC1(C(=O)O)CCCC1 (stereo not drawn) | malate dehydrogenase | enzyme activity, inhibitor |  | 200 µM, pH 7.0, 1% DMSO, aggregation counter-screen |  | remaining activity | 81%
O=C1CCCc2cc(C(=O)CCl)ccc2N1 | UCHL1 | covalent, intact protein LC-MS |  | 12.5 µM |  | labelling | 29.8%
Cc1cc(Oc2ncccc2CN2CCN(c3ccc(C(F)(F)F)cc3[N+](=O)[O-])CC2)ccc1-c1c(C)c(=O)[nH]c(=O)n1C | ADRA2C | binding, radioligand binding |  | added: [3H]rauwolscine | relative to: Ki alpha2A over Ki alpha2C | selectivity ratio | 4
COCCNC(=O)C(C#N)=Cc1c(F)cccc1Cl | UCHL1 | covalent, intact protein LC-MS |  | 12.5 µM |  | labelling | 16.6%
Cc1cn(C2CCN(Cc3cccc(Oc4cccc(Cl)c4)n3)CC2)c(=O)[nH]c1=O | Thymidylate kinase (DTYMK, Homo sapiens, UniProt P23919) | enzyme activity, inhibitor |  | no inhibition observed |  | highest concentration tested | > 40 µM
